# Assay results pooled from the literature.
# Each line is one published result; not all experiments were run side by side. ± marks the error that the study gave.
# ALB: Albumin (ALB, Bos taurus, UniProt P02769)
# UniProt P02769, sequence (whole entry, looked up): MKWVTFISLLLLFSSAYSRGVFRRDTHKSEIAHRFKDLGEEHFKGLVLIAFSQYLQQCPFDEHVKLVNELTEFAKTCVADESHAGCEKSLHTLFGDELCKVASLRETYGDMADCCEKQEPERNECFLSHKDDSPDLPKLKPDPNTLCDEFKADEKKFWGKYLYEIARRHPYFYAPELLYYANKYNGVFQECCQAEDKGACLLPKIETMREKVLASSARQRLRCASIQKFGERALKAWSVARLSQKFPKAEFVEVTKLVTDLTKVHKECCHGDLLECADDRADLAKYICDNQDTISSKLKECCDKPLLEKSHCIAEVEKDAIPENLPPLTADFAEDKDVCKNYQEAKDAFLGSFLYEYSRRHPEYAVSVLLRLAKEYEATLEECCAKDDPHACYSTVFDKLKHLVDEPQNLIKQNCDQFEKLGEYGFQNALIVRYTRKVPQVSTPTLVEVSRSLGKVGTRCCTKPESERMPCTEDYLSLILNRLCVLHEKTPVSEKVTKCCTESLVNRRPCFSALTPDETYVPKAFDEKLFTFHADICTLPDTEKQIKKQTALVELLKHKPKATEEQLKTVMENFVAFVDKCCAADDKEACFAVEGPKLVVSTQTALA
# gdpP residues 84-659: gdpP, residues 84-659 (Bacillus subtilis, UniProt P37484)
# UniProt P37484, sequence (84-659, looked up): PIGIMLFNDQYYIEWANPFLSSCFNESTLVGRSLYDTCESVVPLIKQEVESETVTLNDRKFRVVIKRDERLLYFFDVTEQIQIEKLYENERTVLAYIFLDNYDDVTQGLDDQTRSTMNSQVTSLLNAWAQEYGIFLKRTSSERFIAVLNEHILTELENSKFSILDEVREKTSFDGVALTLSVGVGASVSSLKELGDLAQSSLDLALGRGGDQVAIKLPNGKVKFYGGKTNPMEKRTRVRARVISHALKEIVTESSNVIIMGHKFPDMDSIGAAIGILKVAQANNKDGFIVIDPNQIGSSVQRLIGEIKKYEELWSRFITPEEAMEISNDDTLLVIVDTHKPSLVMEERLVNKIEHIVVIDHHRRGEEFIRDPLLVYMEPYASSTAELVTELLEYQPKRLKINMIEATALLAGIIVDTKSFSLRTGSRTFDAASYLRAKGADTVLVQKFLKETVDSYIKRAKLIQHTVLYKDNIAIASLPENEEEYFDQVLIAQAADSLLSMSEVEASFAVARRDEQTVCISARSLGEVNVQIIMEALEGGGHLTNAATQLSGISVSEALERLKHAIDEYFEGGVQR
# UniProt A0A109QYD3, sequence (whole entry, looked up): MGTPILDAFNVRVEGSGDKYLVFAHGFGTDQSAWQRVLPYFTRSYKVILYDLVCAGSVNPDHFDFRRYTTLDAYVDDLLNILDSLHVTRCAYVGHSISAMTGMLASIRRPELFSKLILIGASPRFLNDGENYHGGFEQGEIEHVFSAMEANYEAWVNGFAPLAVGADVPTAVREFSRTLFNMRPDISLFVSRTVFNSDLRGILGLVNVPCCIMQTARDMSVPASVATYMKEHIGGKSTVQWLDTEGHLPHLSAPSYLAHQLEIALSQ
# UniProt P00691, sequence (whole entry, looked up): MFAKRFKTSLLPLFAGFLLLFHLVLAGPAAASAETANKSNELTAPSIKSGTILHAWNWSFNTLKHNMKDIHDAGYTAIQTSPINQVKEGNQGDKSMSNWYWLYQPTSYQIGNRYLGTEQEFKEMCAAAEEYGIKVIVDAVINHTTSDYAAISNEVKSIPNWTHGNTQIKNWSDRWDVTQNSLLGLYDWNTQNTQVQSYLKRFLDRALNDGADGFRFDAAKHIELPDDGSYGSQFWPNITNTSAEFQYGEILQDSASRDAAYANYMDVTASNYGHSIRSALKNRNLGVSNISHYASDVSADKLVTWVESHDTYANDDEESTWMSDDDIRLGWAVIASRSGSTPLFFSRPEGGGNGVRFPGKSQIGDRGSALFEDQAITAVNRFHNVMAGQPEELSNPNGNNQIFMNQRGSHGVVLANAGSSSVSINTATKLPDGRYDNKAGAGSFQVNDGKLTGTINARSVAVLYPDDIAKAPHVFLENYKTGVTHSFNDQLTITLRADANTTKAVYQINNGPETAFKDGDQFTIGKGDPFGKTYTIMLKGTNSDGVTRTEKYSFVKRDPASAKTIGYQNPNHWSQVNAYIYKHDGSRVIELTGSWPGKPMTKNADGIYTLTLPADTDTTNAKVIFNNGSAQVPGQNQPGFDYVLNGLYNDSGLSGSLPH
# UniProt P21564, sequence (whole entry, unmodified, looked up): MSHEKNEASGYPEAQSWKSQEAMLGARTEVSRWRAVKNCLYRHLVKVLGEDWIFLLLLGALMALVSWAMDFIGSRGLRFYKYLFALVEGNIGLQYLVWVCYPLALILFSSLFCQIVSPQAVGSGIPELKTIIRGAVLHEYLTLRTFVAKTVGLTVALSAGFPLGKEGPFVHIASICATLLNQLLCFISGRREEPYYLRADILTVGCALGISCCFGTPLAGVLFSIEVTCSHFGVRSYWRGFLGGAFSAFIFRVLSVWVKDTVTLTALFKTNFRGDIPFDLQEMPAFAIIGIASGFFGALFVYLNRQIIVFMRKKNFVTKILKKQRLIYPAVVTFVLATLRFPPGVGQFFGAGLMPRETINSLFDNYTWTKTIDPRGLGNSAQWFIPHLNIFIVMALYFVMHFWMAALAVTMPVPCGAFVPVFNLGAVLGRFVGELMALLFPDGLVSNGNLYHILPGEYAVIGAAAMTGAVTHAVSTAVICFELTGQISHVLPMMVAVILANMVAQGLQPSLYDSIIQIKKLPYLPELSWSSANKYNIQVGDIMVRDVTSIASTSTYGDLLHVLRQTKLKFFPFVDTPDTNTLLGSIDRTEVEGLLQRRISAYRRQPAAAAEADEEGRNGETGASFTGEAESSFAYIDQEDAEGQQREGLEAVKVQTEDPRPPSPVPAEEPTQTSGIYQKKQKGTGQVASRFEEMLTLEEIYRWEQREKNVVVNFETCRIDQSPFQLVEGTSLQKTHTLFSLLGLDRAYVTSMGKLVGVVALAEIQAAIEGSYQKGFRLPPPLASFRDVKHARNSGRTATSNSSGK
# UniProt Q06124, sequence (whole entry, looked up): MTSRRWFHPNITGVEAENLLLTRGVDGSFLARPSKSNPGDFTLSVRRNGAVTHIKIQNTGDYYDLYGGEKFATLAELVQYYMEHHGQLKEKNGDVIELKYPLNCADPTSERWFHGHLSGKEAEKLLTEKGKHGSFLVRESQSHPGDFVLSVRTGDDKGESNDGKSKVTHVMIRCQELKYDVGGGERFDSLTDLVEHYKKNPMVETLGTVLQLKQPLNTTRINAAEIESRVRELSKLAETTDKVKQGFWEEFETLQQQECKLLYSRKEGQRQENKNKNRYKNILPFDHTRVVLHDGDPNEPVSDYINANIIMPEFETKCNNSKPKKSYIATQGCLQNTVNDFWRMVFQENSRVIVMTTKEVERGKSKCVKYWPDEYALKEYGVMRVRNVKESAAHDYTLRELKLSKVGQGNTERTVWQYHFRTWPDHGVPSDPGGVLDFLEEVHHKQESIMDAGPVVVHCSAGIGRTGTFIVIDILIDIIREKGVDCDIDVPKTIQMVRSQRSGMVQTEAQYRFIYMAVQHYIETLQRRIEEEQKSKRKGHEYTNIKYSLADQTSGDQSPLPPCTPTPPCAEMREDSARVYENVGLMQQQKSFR
# UniProt Q14790, sequence (whole entry, looked up): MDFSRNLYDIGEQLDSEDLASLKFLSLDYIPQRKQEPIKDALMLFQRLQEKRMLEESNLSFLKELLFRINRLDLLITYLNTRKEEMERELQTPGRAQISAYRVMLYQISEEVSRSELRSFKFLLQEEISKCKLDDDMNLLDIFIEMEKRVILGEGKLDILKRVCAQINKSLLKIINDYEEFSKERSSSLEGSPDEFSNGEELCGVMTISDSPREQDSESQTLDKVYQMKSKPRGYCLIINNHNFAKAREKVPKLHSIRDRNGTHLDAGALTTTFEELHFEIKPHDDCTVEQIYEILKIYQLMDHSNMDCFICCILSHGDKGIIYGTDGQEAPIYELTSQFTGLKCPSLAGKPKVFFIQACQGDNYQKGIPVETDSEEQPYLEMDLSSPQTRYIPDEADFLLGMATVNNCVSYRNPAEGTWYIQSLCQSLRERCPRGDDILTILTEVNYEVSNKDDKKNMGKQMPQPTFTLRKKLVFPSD
# UniProt Q9VNB5, sequence (whole entry, looked up): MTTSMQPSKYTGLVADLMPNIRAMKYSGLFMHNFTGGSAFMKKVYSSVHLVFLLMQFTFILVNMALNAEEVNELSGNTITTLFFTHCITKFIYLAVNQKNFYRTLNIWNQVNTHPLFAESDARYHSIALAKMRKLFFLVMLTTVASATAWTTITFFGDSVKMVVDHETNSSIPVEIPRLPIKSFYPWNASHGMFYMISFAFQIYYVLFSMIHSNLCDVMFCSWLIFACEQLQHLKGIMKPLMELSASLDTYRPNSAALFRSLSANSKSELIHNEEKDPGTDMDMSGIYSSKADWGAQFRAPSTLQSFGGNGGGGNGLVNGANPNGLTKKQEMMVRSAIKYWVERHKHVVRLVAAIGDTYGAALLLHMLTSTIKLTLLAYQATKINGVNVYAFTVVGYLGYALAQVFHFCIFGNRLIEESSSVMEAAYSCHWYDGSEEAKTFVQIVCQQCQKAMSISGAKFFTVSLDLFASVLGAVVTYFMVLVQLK
# UniProt P00729, sequence (whole entry, looked up): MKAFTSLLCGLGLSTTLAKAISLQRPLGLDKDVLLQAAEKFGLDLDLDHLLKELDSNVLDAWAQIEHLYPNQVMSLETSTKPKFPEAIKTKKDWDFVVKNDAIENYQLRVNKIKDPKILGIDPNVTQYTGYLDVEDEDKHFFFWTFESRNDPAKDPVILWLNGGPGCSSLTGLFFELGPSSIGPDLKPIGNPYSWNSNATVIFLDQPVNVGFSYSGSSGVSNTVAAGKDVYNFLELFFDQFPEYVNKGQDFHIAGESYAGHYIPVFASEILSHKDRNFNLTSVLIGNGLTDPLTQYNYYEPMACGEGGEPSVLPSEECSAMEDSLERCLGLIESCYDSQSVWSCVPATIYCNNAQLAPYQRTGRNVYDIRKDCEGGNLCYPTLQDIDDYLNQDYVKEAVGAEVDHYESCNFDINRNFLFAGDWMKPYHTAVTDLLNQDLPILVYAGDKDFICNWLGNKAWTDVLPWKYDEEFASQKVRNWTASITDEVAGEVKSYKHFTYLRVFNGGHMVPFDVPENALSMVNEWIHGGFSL
SMILES,target,assay,system,conditions,how to read,endpoint,result
O=C(c1cccc(-n2cccc2)c1)N1CCCN(S(=O)(=O)c2ccc(F)cc2)CC1,"Procathepsin L (CTSL, Homo sapiens, UniProt P07711)",FRET,,,,Hill slope,1.19
C[C@]12CC[C@H](OC(=O)CN(CCN(CCN(CC(=O)O)CC(=O)O)CC(=O)O)CC(=O)O)C[C@H]1CC[C@@H]1[C@@H]2CC[C@]2(C)[C@@H](C3=CC(=O)OC3)CC[C@]12O,"Na+/K+-ATPase α1-3, porcine cortex","enzyme activity, inhibitor, malachite green phosphate release",,"0.1 µM, 30 min",,remaining activity,< 50%
CC(=O)N[C@@H](CC(C)C)C(=O)N[C@@H](CCC(=O)O)C(=O)N[C@@H](Cc1c[nH]cn1)C(=O)N[C@@H](CC(=O)O)C(=O)Nc1ccc2c(C)cc(=O)oc2c1,"Caspase-8 (CASP8, Homo sapiens, UniProt Q14790)","substrate cleavage, substrate, fluorogenic AMC release",,enzyme 0.25 activity units/µL,,Vmax,1100 ± 37.6 RFU/min
O=C1SCCC1NC(C(=O)NCc1ccccc1)C1CC1 (stereo not shown),"TST (Homo sapiens, UniProt Q16762)",activator,,"17.1 µM, versus sodium thiosulfate, together with: KCN 60 mM",,Vmax,0.37 ± 0.04 mM/s
CSCC[C@@H]1NC(=O)[C@H](Cc2c[nH]c3ccccc23)NC(=O)[C@H](CCCNC(=N)N)NC(=O)[C@H](Cc2c[nH]c3ccccc23)NC(=O)[C@H](CCCNC(=N)N)NC(=O)[C@H](C)NC(=O)[C@@H](NC(=O)[C@@H](N)C(C)C)CSCC(=NOCC(=O)NCP(=O)(Oc2ccccc2)Oc2ccccc2)CSC[C@@H](C(=O)NCC(N)=O)NC(=O)[C@@H]2CCCN2C1=O,"Fluorophosphonate-binding serine hydrolase F (Staphylococcus aureus, UniProt Q2FUY3)",covalent inhibitor,,Fluorophosphonate-binding serine hydrolase F 100 nM,,kinact/KI,27000 ± 840 M⁻¹ s⁻¹
CC(=O)N[C@@H](Cc1c[nH]cn1)C(=O)N[C@@H](CCCNC(=N)N)C(=O)N[C@@H](CCCNC(=N)N)C(=O)N[C@@H](CCCNC(=N)N)C(=O)N[C@@H](CCCNC(=N)N)C(=O)N[C@@H](CCCNC(=N)N)C(=O)N[C@@H](CCCNC(=N)N)C(=O)N[C@@H](CCCNC(=N)N)C(=O)N[C@@H](CCCNC(=N)N)C(=O)N[C@@H](Cc1c[nH]cn1)C(N)=O,ALB,fluorescence quenching,,,,bimolecular quenching rate constant,7.99e+12 M⁻¹ s⁻¹
CCc1ccc(NC(=O)CSc2nnc(-c3ccncc3)n2C2CC2)cc1,"Orco (Drosophila melanogaster, UniProt Q9VNB5)","calcium mobilization, agonist",HEK293 expressing Orco,,baseline: VUAA1 maximum,efficacy,150%
O=C(Nc1cccc(-c2nn[nH]n2)c1)c1cc(-c2ccccn2)cc(C(F)(F)F)c1,CTX-M-27 beta-lactamase,surface plasmon resonance,,,,Kd/Ki difference,2 to 3 fold
CC[C@H](C)[C@H](NC(=O)[C@H](CCC(=O)O)NC(=O)[C@H](CC(=O)O)NC(=O)c1ccc2c(c1)C(=O)OC21c2ccc(O)cc2Oc2cc(O)ccc21)C(=O)N[C@H](C(=O)N[C@@H](CC(N)=O)C(=O)N[C@@H](CCCCN)C(=O)N[C@H](C(=O)N[C@@H](CC(C)C)C(N)=O)C(C)C)C(C)C,yeast Vps4p L40D,fluorescence polarization,,concentration not given,baseline: wild-type Vps4p,binding affinity,decreased
CC(C)C[C@@H](NC(=O)[C@H]1CCCN1C(=O)[C@H](N)CC(=O)O)C(=O)N[C@H](CCCCN)C(=O)N[C@H](C)C(=O)N[C@H](CCCNC(=N)N)C(=O)N[C@H](Cc1c[nH]cn1)C(=O)N[C@@H](C(=O)N[C@H](CO)C(=O)N[C@@H](C(=O)N[C@H](Cc1c[nH]c2ccccc12)C(=O)N[C@H](Cc1ccc(O)cc1)C(N)=O)C(C)C)[C@H](C)O,"Microtubule-associated protein tau, PHF6 peptide (MAPT, Homo sapiens, UniProt P10636)",ThT fluorescence,,"500 µM, room temperature, 50 µM tau",,fibril formation inhibition,no inhibition
Cc1cc(C2=CCN(CC3OCCO3)CC2)cc([N+](=O)[O-])c1N,"HTR2A (Homo sapiens, UniProt P28223)","β-arrestin recruitment, agonist",,,,Emax,119%
O=C(O)c1ccccc1-c1c2ccc(=O)c([As]3SCCS3)c-2oc2c([As]3SCCS3)c(O)ccc12,"PTPN11 (Homo sapiens, UniProt Q06124)",,,"1 µM, full-length, together with: DiFMUP",,time to full inhibition,~150 min
Nc1ncnc2c1ccn2[C@@H]1O[C@@H]2COP(=O)(O)O[C@H]3[C@@H](O)[C@H](n4ccc5c(N)ncnc54)O[C@@H]3COP(=O)(O)O[C@H]2[C@H]1O,gdpP residues 84-659,HPLC,,concentration not given,"baseline: c-di-AMP, higher = slower hydrolysis",hydrolysis rate fold decrease,1.8
CC1=C(C)[C@@H](Oc2c(F)cc3c(C)cc(=O)oc3c2F)OC1=O,"RMS3 (Lathyrus oleraceus, UniProt A0A109QYD3)","enzyme activity, substrate, DiFMU release",,pre-steady state,,K1/2,17.4 µM
Nc1nc(N)c2ncn([C@@H]3O[C@@H]4COP(=O)(O)O[C@H]5[C@@H](O)[C@H](n6cnc7c(N)ncnc76)O[C@@H]5COP(=O)(O)O[C@H]4[C@H]3O)c2n1,gdpP residues 84-659,"substrate, HPLC",,"100 µM, 37 °C, upper limit if undegraded 24 h, together with: enzyme 1 µM",,degradation rate,1.8 ± 0.3 mol/min/mol enzyme
Nc1nc2c(O)cc(N3CC3)cc2s1,"Histone-lysine N-methyltransferase, H3 lysine-36 specific, SET domain (NSD1, Homo sapiens, UniProt Q96L73)",mass spectrometry,NSD1 SET domain 1 µM,"10 µM, 8 h, 32 °C",,covalent engagement,32%
Cn1cc(-c2cccc(CN3CCC4(CC3)COc3c4ccc4c3CN([C@H]3CCC(=O)NC3=O)C4=O)c2)cn1,"Zinc finger protein Aiolos (Homo sapiens, UniProt Q9UKT9)","degrader, HiBiT",HEK293,6 h,,Dmax,< 20%
CCN(CC)c1ccc2c(c1)[O][Pt-2]1([Cl])[N+](=C2)Cc2cccc[n+]21 (stereo not shown),ALB,binding to BSA,,,,binding free energy,-8.32 kcal/mol
CC(C)CC(=O)NC1CCCC1=O (stereo not shown),"rhlR (Pseudomonas aeruginosa, UniProt P54292)","reporter gene, agonist, rhlI-lacZ reporter",Escherichia coli,,,maximum activation,100%
O=C(O)COc1ccc(Cl)cc1,"Chloride channel protein (Torpedo marmorata, UniProt P21564, C212S)",inside-out patch,,"20 mM, -80 mV",,single-channel current amplitude,0.24 pA
COc1cc(COc2ccc3c(C)cc(=O)oc3c2)cc(OC)c1OC,"Nucleoside transporter 1 (Plasmodium vivax, UniProt A5K8B0, D23E)","adenosine uptake, inhibitor",,D23E mutant,baseline: D23E mutant over wild type,IC50 ratio,~3.5 fold
CC(=O)NC(Cc1ccc(Br)c(Cl)c1)C(=O)N[C@@H](C)C(=O)N1CCC[C@H]1C(=O)N1CCC[C@H]1C(=O)N[C@@H](CCC(=O)O)C(=O)N[C@@H](Cc1c[nH]cn1)C(=O)N[C@@H](CO)C(=O)N[C@H](C(=O)N[C@@H](C)C(N)=O)[C@@H](C)OP(=O)(O)O (stereo partly shown),"MAPK1 (Homo sapiens, UniProt P28482)","enzyme activity, inhibitor",,10 µM,,inhibition,0.69%
Nc1ncc2ncn([C@@H]3O[C@@H]4COP(=O)(O)O[C@H]5[C@@H](O)[C@H](n6cnc7cnc(N)nc76)O[C@@H]5COP(=O)(O)O[C@H]4[C@H]3O)c2n1,gdpP residues 84-659,"substrate, HPLC",,"100 µM, 37 °C, upper limit if undegraded 24 h, together with: enzyme 1 µM",,degradation rate,1.7 ± 0.2 mol/min/mol enzyme
CC(C)P(=S)(NP(=[Se])(C(C)C)C(C)C)C(C)C,"Alpha-amylase (Bacillus subtilis, UniProt P00691)","tryptophan fluorescence, fluorescence quenching",,"0.20 mg/mL, 298 K",,maximum emission wavelength,351 nm
O=C(Nc1cccc(-c2nn[nH]n2)c1)c1cc(-c2nn[nH]n2)cc(C(F)(F)F)c1,"Beta-lactamase CTX-M-14 (Escherichia coli, UniProt Q9L5C7)",,,,baseline: Kd over Ki,Kd/Ki ratio,> 3 fold
CCN(Cc1ccccc1)C(=O)CCc1nc(CN2CCN(C(=O)Cc3ccc(OC)c(OC)c3)CC2)no1,"Sodium channel protein type 11 subunit alpha (Scn11a, Rattus norvegicus, UniProt O88457)",whole-cell patch clamp,rat DRG neurons,1 µM,,V1/2 of activation,-39.5 ± 1.26 mV
CC(C)OC(=O)[C@H](C)NP(=S)(Oc1ccccc1)c1ccccc1 (stereo partly shown),"Carboxypeptidase Y (Saccharomyces cerevisiae, UniProt P00729)","substrate, LC-MS/MS",,"5 µM, together with: carboxypeptidase Y 60 ng/mL",,maximum DNS-NH2 concentration,1.84 µmol/L
NC(=NN=Cc1cccs1)[S][Ru+]([Cl])([P](c1ccccc1)(c1ccccc1)c1ccccc1)[P](c1ccccc1)(c1ccccc1)c1ccccc1.[Cl-],ALB,fluorescence quenching,,"together with: warfarin, site I marker",,quenching rate constant,1.63e+11 M⁻¹ s⁻¹
CC(=O)N[C@@H](Cc1c[nH]c2ccccc12)C(=O)N[C@@H](CCC(=O)O)C(=O)N[C@@H](Cc1c[nH]cn1)C(=O)N[C@@H](CC(=O)O)C(=O)Nc1ccc2c(C)cc(=O)oc2c1,"Caspase-4 (CASP4, Homo sapiens, UniProt P49662)","substrate cleavage, substrate, fluorogenic AMC release",,enzyme 0.25 activity units/µL,,Vmax,6570 ± 588 RFU/min
C#CC[C@H](NC(=O)CNC(=O)[C@H](CO)NC(=O)[C@@H]1CCCCNC(=O)CCCC(=O)N[C@@H](CCSC)C(=O)N[C@@H](Cc2c[nH]c3ccccc23)C(=O)N2CCC[C@H]2C(=O)N[C@@H](Cc2c[nH]cn2)C(=O)N[C@@H](CCCNC(=N)N)C(=O)N[C@@H](C(C)C)C(=O)N[C@@H]([C@@H](C)O)C(=O)N[C@@H](C)C(=O)N(C)[C@@H](C)C(=O)N1)C(=O)O,"Microtubule-associated protein 1 light chain 3 alpha (Homo sapiens, UniProt Q9H492)",fluorescence polarization,,,baseline: cyclic over linear,binding energy from cyclization,~0.7 kcal/mol
Nc1nc2ncc(CNc3ccc(C(=O)N[C@@H](CCC(=O)NCCOCCOCCNC(=O)CN4CCN5CCN(CC4)CC(=O)[O][Al]([18F])[O]C(=O)C5)C(=O)O)cc3)nc2c(=O)[nH]1,"FOLR1 (Homo sapiens, UniProt P15328)",radioligand saturation binding,KB xenograft homogenate,,,Bmax,511 nM
O=C(CCCC[C@@H]1SC[C@@H]2NC(=O)N[C@@H]21)NCCCCCCCCN1[C@H]2[C@H](O)[C@@H](O)[C@H](O[C@@H]3OC[C@@H](O)[C@H](O)[C@H]3O)C[C@H]21 (stereo partly shown),"Exo-1,4-beta-xylosidase xlnD (xlnD, Emericella nidulans, UniProt Q5BAS1)",covalent inhibitor,Aspergillus nidulans,"pH 4.5, ambient, together with: 4MU-β-D-xyloside",,kinact,0.0002 s⁻¹
NC1CCc2cc(O)c(O)cc2C1 (stereo not shown),"Carbamate kinase (Giardia intestinalis, UniProt A8BB85)","enzyme activity, inhibitor, luminescence, ATP detection",Giardia lamblia,,,maximal inhibition,83.2%
Cc1cc(S(=O)(=O)Nc2ncccn2)c(F)cc1N(C)C1CCN([C@H](C)c2ccccc2)CC1,"SCN8A (Homo sapiens, UniProt Q9UQD0)","ion current, inhibitor, patch clamp",,held at V0.5,,kon,44500 M⁻¹ s⁻¹
